# Measured values of several laboratories.
# ± gives the spread as reported.
SMILES,system,conditions,tissue uptake
CN1C(=O)[C@@H](Cc2ccc(O)c(I)c2)NC(=O)CNC(=O)[C@H](Cc2ccc3ccccc3c2)NC(=O)[C@H](CCCNC(=N)N)NC(=O)[C@H]1CCCNC(=O)c1ccc(CNC(=O)CN2CCN(CC(=O)O)CCN(CC(=O)O)CCN(CC(=O)O)CC2)cc1 [lutetium-177 labelled],"female CB-17 SCID mouse, Daudi xenograft, large intestine","intravenous, 6 h, CXCR4 blocking, together with: AMD3100 2 mg/kg coinjected",0.43 ± 0.12 %ID/g
CCCC[C@H](NC(=O)CNC(=O)CNC(=O)CN1CCN(CC(=O)O)CCN(CC(=O)O)CCN(CC(=O)O)CC1)C(=O)N[C@H]1CC(=O)NCCCC[C@@H](C(N)=O)NC(=O)[C@H](Cc2c[nH]c3ccccc23)NC(=O)[C@H](CCCNC(=N)N)NC(=O)[C@@H](Cc2ccccc2)NC(=O)[C@H](Cc2c[nH]cn2)NC1=O [copper-64 labelled],"C57 mouse female B16/F1 melanoma, intestines","intravenous, 0.037 MBq, 2 h",10.7 ± 1.68 %ID
CCCC[C@H](NC(=O)CNC(=O)CNC(=O)CN1CCN(CC(=O)O)CCN(CC(=O)O)CCN(CC(=O)O)CC1)C(=O)N[C@H]1CC(=O)NCCCC[C@@H](C(N)=O)NC(=O)[C@H](Cc2c[nH]c3ccccc23)NC(=O)[C@H](CCCNC(=N)N)NC(=O)[C@@H](Cc2ccccc2)NC(=O)[C@H](Cc2c[nH]cn2)NC1=O [lead-203 labelled],"C57 mouse, heart","intravenous, 0.056 MBq, 2 h",0.27 ± 0.18 %ID/g
O=C([O-])CN1CCN(CC(=O)[O-])CCN(CC(=O)NCCc2ccc3c(c2)C2C=CCC2C(c2cc4c(cc2Br)OCO4)N3)CCN(CC(=O)[O-])CC1.[111In+3] (centres unmarked),"mouse, Hec50 endometrial tumour, large intestine",0.5 h post injection,1.29 ± 0.28 %ID/g
CC(C)[C@H](NC(=O)[C@@H]1CCCN1C(=O)[C@H](CCCNC(=N)N)NC(=O)[C@H](CS)NC(=O)[C@H](Cc1c[nH]c2ccccc12)NC(=O)[C@H](CCCNC(=N)N)NC(=O)[C@@H](Cc1ccccc1)NC(=O)[C@H](Cc1c[nH]cn1)NC(=O)[C@H](CCC(=O)O)NC(=O)[C@H](CS)NC(=O)[C@H](CS)NC(=O)CNC(=O)[C@@H]1CC(=O)N[C@@H](CCCNC(=N)N)C(=O)NCC(=O)N[C@@H](CC(=O)O)C(=O)N[C@H](Cc2ccc(O)cc2)C(=O)N1)C(N)=O [technetium-99m labelled],"C57 mouse, female, B16/F1 melanoma, stomach","intravenous, 0.037 MBq, 4 h",2.94 ± 0.88 %ID/g
CN(C)c1ccc(-c2nc3ccc(OCCCCCN4CCN5CCN(CC4)CC(=O)[O][Al]([18F])[O]C(=O)C5)cc3s2)cc1,"ICR mouse, heart","intravenous, 10 min",4.12 ± 1.46 %ID/g
CC(C)[C@H](NC(=O)[C@@H]1CCCN1C(=O)[C@H](CCCNC(=N)N)NC(=O)[C@H](CS)NC(=O)[C@H](Cc1c[nH]c2ccccc12)NC(=O)[C@H](CCCNC(=N)N)NC(=O)[C@@H](Cc1ccccc1)NC(=O)[C@H](Cc1c[nH]cn1)NC(=O)[C@H](CCC(=O)O)NC(=O)[C@H](CS)NC(=O)[C@H](CS)NC(=O)[C@@H]1CC(=O)N[C@@H](CCCNC(=N)N)C(=O)NCC(=O)N[C@@H](CC(=O)O)C(=O)N[C@H](Cc2ccc(O)cc2)C(=O)N1)C(N)=O [technetium-99m labelled],"C57 mouse, female, B16/F1 melanoma, brain","intravenous, 0.037 MBq, 4 h",0.04 ± 0.01 %ID/g
CCCC[C@H](NC(=O)CNC(=O)CNC(=O)CN1CCN(CC(=O)O)CCN(CC(=O)O)CC1)C(=O)N[C@H]1CC(=O)NCCCC[C@@H](C(N)=O)NC(=O)[C@H](Cc2c[nH]c3ccccc23)NC(=O)[C@H](CCCNC(=N)N)NC(=O)[C@@H](Cc2ccccc2)NC(=O)[C@H](Cc2c[nH]cn2)NC1=O [copper-64 labelled],"female C57 mouse, B16/F1 melanoma, spleen","intravenous, 0.037 MBq, 4 h",0.17 ± 0.08 %ID/g

# Excerpt of the above:
SMILES,system,conditions,tissue uptake
CCCC[C@H](NC(=O)CNC(=O)CNC(=O)CN1CCN(CC(=O)O)CCN(CC(=O)O)CCN(CC(=O)O)CC1)C(=O)N[C@H]1CC(=O)NCCCC[C@@H](C(N)=O)NC(=O)[C@H](Cc2c[nH]c3ccccc23)NC(=O)[C@H](CCCNC(=N)N)NC(=O)[C@@H](Cc2ccccc2)NC(=O)[C@H](Cc2c[nH]cn2)NC1=O [copper-64 labelled],"C57 mouse female B16/F1 melanoma, intestines","intravenous, 0.037 MBq, 2 h",10.7 ± 1.68 %ID
